Assay results gathered from unrelated publications.
Numbered parts are unrelated; each lists some results of a single study.

Study 1
Target: Histone acetyltransferase KAT6A, winged helix 2, GST fusion (KAT6A, Homo sapiens, UniProt Q92794, residues 85-181)
Method: protein binding microarray
Molecule type: double-stranded DNA, one strand shown
Medium: in vitro
Concentration: not given
Notes: 8-mer, flanks averaged, mean of 2 arrays, mostly near background
Relative to: not given
Reading: higher = stronger binding
Residues (chain): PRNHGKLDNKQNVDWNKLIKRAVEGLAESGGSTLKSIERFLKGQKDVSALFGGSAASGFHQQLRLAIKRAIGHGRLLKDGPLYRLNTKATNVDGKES
Oligonucleotide	E-score
CATCGATG	-0.139
GAGGGAGA	-0.109
CGTGGCGA	0.167
ACGGCAAG	0.0707
CTTCTTTC	-0.0741
CCTGTGCA	-0.103

Study 2
Target: Sal-like protein 4, full length isoform A (SALL4, Homo sapiens, UniProt Q9UJQ4, residues 1-1053)
Chain of UniProt Q9UJQ4 (whole entry, looked up): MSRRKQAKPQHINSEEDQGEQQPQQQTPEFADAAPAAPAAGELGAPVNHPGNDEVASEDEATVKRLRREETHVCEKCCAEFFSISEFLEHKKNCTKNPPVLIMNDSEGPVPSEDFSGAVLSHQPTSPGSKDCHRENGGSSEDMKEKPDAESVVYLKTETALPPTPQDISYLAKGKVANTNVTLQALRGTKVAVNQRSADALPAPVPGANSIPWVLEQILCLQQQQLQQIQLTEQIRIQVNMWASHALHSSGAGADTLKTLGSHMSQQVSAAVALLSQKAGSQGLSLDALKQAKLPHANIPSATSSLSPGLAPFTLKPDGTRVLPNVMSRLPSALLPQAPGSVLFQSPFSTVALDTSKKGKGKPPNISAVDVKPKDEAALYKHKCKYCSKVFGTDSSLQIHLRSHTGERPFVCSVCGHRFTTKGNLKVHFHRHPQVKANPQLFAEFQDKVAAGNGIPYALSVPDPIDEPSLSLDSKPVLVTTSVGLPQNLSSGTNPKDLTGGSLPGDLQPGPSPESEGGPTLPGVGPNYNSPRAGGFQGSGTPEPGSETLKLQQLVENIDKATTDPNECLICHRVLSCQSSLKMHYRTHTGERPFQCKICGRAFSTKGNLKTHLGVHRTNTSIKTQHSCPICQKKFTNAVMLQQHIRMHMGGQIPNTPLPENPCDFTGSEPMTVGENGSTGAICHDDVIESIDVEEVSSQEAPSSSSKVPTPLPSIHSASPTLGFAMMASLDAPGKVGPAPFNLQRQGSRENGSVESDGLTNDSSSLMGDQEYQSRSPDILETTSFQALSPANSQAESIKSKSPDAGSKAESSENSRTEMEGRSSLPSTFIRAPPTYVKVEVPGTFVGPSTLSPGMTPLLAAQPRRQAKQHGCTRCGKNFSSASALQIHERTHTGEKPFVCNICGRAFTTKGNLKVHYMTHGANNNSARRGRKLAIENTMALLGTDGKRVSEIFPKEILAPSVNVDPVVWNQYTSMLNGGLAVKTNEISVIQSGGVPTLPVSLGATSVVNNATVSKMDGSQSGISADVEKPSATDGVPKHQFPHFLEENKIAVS
Method: universal PBM
Molecule type: double-stranded DNA, one strand shown
Medium: in vitro
Concentration: 600 nM
Notes: 8-mer, flanks averaged, mean of replicates
Reading: higher = stronger binding
Oligonucleotide	E-score
ATAGGGTG	-0.0514
ACAAGGTG	-0.0523
AGGGGACG	-0.275
CCGGCTCG	-0.283
CTCATTGA	-0.073
GAGGTAAC	-0.103

Study 3
Target: Ras GTPase-activating protein-binding protein 1, full length (G3BP1, Homo sapiens, UniProt Q13283)
Chain of UniProt Q13283 (whole entry, looked up): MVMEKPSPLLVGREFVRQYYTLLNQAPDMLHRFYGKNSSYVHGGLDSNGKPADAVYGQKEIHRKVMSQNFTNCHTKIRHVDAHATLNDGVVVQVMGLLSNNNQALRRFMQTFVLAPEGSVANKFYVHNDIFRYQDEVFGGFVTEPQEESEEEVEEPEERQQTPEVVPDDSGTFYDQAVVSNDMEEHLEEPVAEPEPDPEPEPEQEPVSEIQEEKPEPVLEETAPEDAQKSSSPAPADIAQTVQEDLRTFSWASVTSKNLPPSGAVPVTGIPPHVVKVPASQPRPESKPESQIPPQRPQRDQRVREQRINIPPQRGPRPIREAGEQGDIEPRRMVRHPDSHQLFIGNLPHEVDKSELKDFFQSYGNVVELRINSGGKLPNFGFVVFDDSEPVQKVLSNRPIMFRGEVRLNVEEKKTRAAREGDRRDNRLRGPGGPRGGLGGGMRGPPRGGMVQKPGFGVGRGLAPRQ
Method: RNA Bind-n-Seq
Molecule type: RNA
Medium: in vitro
Concentration: 200 nM
Notes: whole 134-nt RNA, ends assumed
Together with: 150 mM KCl
Relative to: input library
Reading: higher = stronger binding
Oligonucleotide	log2 enrichment
GGGAGUUCUACAGUCCGACGAUCCCUGUGCUACACAUCGUAUGUACCGAAUCGGGGAAAAAAAGGGGUUUGGGGAAAAAGGGGAAAGUAUUAUGUUACGCCGUUCGGAUCUGCUGGAAUUCUCGGGUGUCAAGG	0.222
GGGAGUUCUACAGUCCGACGAUCGUCCUGUGCUACACAUCGUAUGUACCGAAUCGGGAAAAAGGGUUUGGGUUUUUUUGGGAAAGUAUUAUGUUACGCCGUUCGGAUCUGCACUGGAAUUCUCGGGUGUCAAGG	-0.447
GGGAGUUCUACAGUCCGACGAUCAGUCCUGUGCUACACAUCGUAUGUACCGAAUCGGGGUUUUUGGGGUGGGGAAAGGGGAAAGUAUUAUGUUACGCCGUUCGGAUCUGCACUUGGAAUUCUCGGGUGUCAAGG	0.315
GGGAGUUCUACAGUCCGACGAUCUGCCUACGUAAUUUUUUAUCUUGAAAUAUUCAAAAUUAGGAGCCAGAUGACCAAGAUGCUCCAGAUGAACAUGAGUCGCCUCCACCUGAAUGGAAUUCUCGGGUGUCAAGG	0.172

Further values, each from its own experiment
Substance	target	assay	test system	setting	scale	measurement	value
PhoQ, residues 284 288 289 292 302 303 SSTMSV	PhoP, residues 12 14 15 18 19 AQCLL (Escherichia coli, UniProt P23836)	Sort-seq, refers to: YFP reporter	E. coli	PhoQ-PhoP variant library, together with: 10 µM Mg2+	relative to: high Mg2+ state, higher = stronger signaling	fold induction	6.46
